Assay results from different studies.
Numbered parts are unrelated; each lists some results of a single study. Changes are numbered by the printed parent chain.

Set 1
Target: Fragile X messenger ribonucleoprotein 1, C-terminal low-complexity region (Fmr1, Mus musculus, UniProt P35922)
Method: RNA Bind-n-Seq
Form: RNA
Medium: in vitro
Tested at: 200 nM
Setting: whole 134-nt RNA, ends assumed
With: 150 mM LiCl
Relative to: input library
Reading: higher = stronger binding
Quantity: log2 enrichment
Library: 7-deaza-guanosine replaces G
Constant ends, left off below: GGGAGUUCUACAGUCCGACGAUC … UGGAAUUCUCGGGUGUCAAGG
UGGACGAUGAAGAGGAAACAAUUGAAGAGGAGGAAGCAAAUGAAGGCGUUGUGGACCACCAAACAGAACUUUCUAAUUUAGCCAAGGAAG: 0.347
AAGUCCUGUGCUACACAUCGUAUGUACCGAAUCGGCCCCCGGCCCCCGGCCCCCGGAAAGUAUUAUGUUACGCCGUUCGGAUCUGCACUU: 0.227
UGGCCCUGGUGGCAUGCGGGGAGGAAGAGGUGGCCUCAUGGAUCGUGGUGGUCCCGGUGGAAUGUUCAGAGGUGGCCGUGGUGGGGACAG: -0.486
CAGAGACAACACGCACCCACACAGACACAGAGGGAAGGGGUUGGGAUGGGGACAGGGUGCACAGCAGGGCGGGGUAGGACCCCAGCCCCU: 0.936
UGGCCCUGGUGGCAUGCGGGGAGGAAGAGGUGGCCUCAUGGAUCGUGGUGUUCCCGGUGGAAUGUUCAGAGGUGGCCGUGGUGGAGACAG: -0.167
UGGGAGGUGGAUUUUGUUUAUUUUUUUAGCUCAUUUCCAGGGGUGGGAAUUUUUUUUUAAUAUGUGUCAUGAAUAAAGUUGUUUUCGAAA: -0.0157
ACCAUGCAGGUGGGCAUCUUUGGGAAGUGGGGCAAGGGGGGGAUAGGGAGGGGGGGAACACUUUGGGAACAGGUGGUCCCAGGUCGUUUC: 1.16
AAGUCCUGUGCUACACAUCGUAUGUACCGAAUCGGGGUUUGGGGUUUGGGGUUUGGAAAGUAUUAUGUUACGCCGUUCGGAUCUGCACUU: -1.66
UGGGAGGUGGAUUUUGUUUAUUUUUAUAGCUCAUUUCCAGGGGUGGGAAUUUUUUUUUAAUAUGUGUCAUGAAUAAAGUUGUUUUUGAAA: 0.128
AGUCCUGUGCUACACAUCGUAUGUACCGAAUCGGGAGGGUUUUUGGGAAAAAAAGGGAAAGUAUUAUGUUACGCCGUUCGGAUCUGCACU: -1.59
UAACUUUAGAGGAGGAUCUGAUGGAUAUGGCAGUGGACGUGGAUUUGGGGAUGGCUAUAAUGGGUAUGUAGGAGGACCUGGAGGUGGCAA: 0.248

Set 2
Target: RNA binding protein fox-1 homolog 2, RRM domain, GST-SBP tag (RBFOX2, Homo sapiens, UniProt O43251-10, residues 100-194)
Method: RNA Bind-n-Seq
Form: RNA
Medium: in vitro
Tested at: 365 nM
Setting: natural RNA segment, single round, ends assumed
Relative to: no-protein control
Reading: higher = stronger binding
Quantity: RBNS enrichment (R)
Constant ends, left off below: GGGAGUUCUACAGUCCGACGAUC … UGGAAUUCUCGGGUGCCAA
Residues (chain): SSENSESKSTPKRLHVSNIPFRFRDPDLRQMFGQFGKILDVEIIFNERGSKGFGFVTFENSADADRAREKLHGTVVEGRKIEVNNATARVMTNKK
GAGAACCACCCAAGGGUGUCGAUUAUAACAGAAUGUGGAGAGUGGGUGGCCGUCAUUGGGAAAGCAUCGAGAAAGAGGCGAGCUUUGCAUCUGUCCCUUGACAGGGAAGG: 1.3
UGGCUCAUGCCUCAGCCCGCCUUCAGGCUGCCCGCCGCCCCUCCACCCAUCCAGUGGACUCUGGGGCGCGGCCACAGGGGACGGGAUGAGGAGCGGGAGGGUUCCGCCAC: 0.217
GCUUUUUCCUCUCCAGUCCAAAACACCUCACUGUUCCUGUCUACCUCGGGGUCAGGGCCCGGCAUGGCCAAGCCCUGGCCCAUCUGUGUCUGUGUCACUCCCCUCCCUUC: 0.844
UGGGGAAGGGCCAGCCACUGACUACUUGAUCUUGGAGACCACAUUUAGAUGGAAAUGAGAGGACCUCCACAGCCCCGCCUCCCUGCCAGGAUGCUAGAUUAUUGGCUGGG: 1.15
GUUUGAUAGACUAGUGCAGCGAUCAGCCAUAUGAUUGAGAGCUACUUUGGGGAUAUAUGGUACGUUGUUUUUGUUUUUUAGACUUAAUAAAGGACAACACGAGCUGGUCU: 0.543
UAGGCUGCAGGGGUGCCAAUGGCAGAGGCACUGGUAGAGAUCAUUUGGACACUGGAGUUGAAAGUUACAGGCAAUCUGUUACACUUGGCUCUGAAUCCUAUGAAUCAAGG: 0.545
AGUAAUGCAAAUAACAAAACUGCAACACUAUUUUUAAAAAGAUAAAUAUCUGAGUUAAAAUUACUGAAUCUUUAUUUUACACCUAAAAAAAUAUGAGAACAAGGUACAUG: 0.565
UCUAUGAGCAGCUGCUGUAACAUACUCAUCAACUAUGAUAGACUUAACACUUGUUACCUAAUGAACAAGGAGGAUGUGCAUUUCGGGUUUCUUUUGAUAUUCGUGGAGGU: 0.488
CUCUAGGACUGCCUCCCACUGCGGCCCCUCACCUGACUUCAGGGUAUGGGGAGGGAGGGAGCCAGUGCUCCAAGGCCAGGGGGCUUUGCUCAUGAGAGAUGUCAGGCUUC: 0.236
AAAGGAGCUACCUGCCCUUUCCUGGGCAUGCUUGGUGACUCAGAUUGAUCUUGGAGUGUGCAGUGGCCCUUCUACCCUGCACCUGACCUCAUGAUCCCCUCCACCUGCAC: 0.321
GAAAGAGACAGAGGCAAUGAGAGAGACAGACAUGCAGGCAGGCCGACAGCUCUGCAUGUACUUGUGUUUUACGGCCUCAAGCAGAAUAAGGGACCUCCUCCUUAUUUCUG: 0.495
UGCCGUGCCGCCUGCACUCCUCAGGGCAGCCUCCCCCGGCUCUACGGGGGCCGCGUGGUGCCAUCCCCAGGGGGCAUGACCAGAUGCGUCCCAAGAUGUUGAUUUUUACU: 0.412

Set 3
Target: Interferon regulatory factor 7, full length, phosphomimetic (IRF7, Homo sapiens, UniProt Q92985, residues 1-503, S471D/S472D/S475D/S476D/S477D/S483D/S484D/S487D)
Sequence of UniProt Q92985 (whole entry, unmodified, looked up): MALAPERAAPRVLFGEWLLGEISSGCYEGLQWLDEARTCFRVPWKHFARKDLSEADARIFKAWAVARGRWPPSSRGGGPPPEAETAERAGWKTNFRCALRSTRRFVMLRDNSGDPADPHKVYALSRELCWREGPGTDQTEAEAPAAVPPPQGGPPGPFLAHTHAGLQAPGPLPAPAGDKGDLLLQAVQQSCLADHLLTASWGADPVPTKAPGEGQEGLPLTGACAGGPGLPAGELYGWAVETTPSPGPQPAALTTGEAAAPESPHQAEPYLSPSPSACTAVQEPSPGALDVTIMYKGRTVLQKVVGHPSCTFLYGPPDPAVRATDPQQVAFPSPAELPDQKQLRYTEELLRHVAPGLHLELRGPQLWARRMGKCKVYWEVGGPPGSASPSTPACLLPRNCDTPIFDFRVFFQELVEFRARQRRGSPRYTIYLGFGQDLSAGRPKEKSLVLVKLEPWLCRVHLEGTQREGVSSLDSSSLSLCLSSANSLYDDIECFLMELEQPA
Method: protein-binding microarray
Form: double-stranded DNA, one strand shown
Medium: in vitro
Tested at: 2200 nM top
Setting: 60-bp whole probe
With: salmon DNA 0.4 mg/ml
Relative to: random background probes
Reading: higher = stronger binding
Quantity: fitted relative affinity
Constant ends, left off below: GCCTAGCAC … GTCTTGATTCGCTTGACGCTGCTG
GACGGTATCGGTGTCGGGACGTGCTAG: -0.397 z-score
GAGATTTCCATTATTGCTTCGTGCTAG: 1.67 z-score
TTAGGTCTCGGTCGCGGTTAGTGCTAG: 0.273 z-score
TTGGGACTGGGTCTCGGTTAGTGCTAG: -0.534 z-score
TTAGGTATCGAACTGGGTTAGTGCTAG: 0.00645 z-score
TTAGGACTGGGGACTAGGTTAGTGCTA: -1.07 z-score
TCAAGTCTCTGTTCTTTACTGTGCTAG: 1.26 z-score
TCAAATCTCAGCCTCCGACTGTGCTAG: 0.19 z-score
TCATAAACCATTTTGGTACTGTGCTAG: 0.263 z-score
TCAGTTTTCACTTTTCCACTGTGCTAG: 6.46 z-score
TTTCTTTTTGCACTCTCTACGTGCTAG: 9.54 z-score
GACAGACTGCTACTGCTGACGTGCTAG: -0.169 z-score
CATATATTCACTATAGTGTGGTGCTAG: 1.06 z-score
TTAGGTATACTTCTCCTTTAGTGCTAG: 0.93 z-score
TTAGTACTGCTTCTCCTTTAGTGCTAG: 1.99 z-score
GACGAACTGGGGTACCGAGACGTGCTA: -0.475 z-score
GGAAGCAGTGAGAAGGTGGCGTGCTAG: -0.502 z-score
GACGCTATCGGGTATCGGGACGTGCTA: 0.276 z-score
AAAATGATTGGTTGAACATGGTGCTAG: -0.258 z-score
GACGCACTGCTTTTCCTGACGTGCTAG: 0.989 z-score
TTAGGACTCGACACTGGGTTAGTGCTA: -0.243 z-score
ACGAGTTTCCATTTTCTGAAGTGCTAG: 4.51 z-score
TTAGGAATCCTTATCCTTTAGTGCTAG: 0.234 z-score

Set 4
Target: ABI1, truncated, D143A, DHFR fusion (Arabidopsis thaliana)
Method: DHFR PCA, deep sequencing
Medium: yeast
Setting: methotrexate growth selection, single substitutions
With: (+)-ABA 58 µM
Relative to: wild-type fitted maximum
Reading: higher = stronger binding
Quantity: relative binding score
Starting sequence: PYL1, truncated, DHFR fusion (Arabidopsis thaliana); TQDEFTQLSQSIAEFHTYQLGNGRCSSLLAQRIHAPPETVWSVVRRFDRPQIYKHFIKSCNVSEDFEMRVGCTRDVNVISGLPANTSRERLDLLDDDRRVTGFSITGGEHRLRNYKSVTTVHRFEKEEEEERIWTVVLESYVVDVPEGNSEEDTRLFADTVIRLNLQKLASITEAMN
E128Q: 101%
Q2F: 91.4%
D97V: 91.2%
T119C: 82.1%
R74F: -1.16%
P37A: 77.7%
A175K: 78.8%
P36R: 81.2%
K168A: 75.6%
E38M: 27.4%
D153L: 1.84%
N85W: 84.4%
E4L: 88.7%
E4N: 75.8%
R99K: 100%
T1I: 87.8%
L169Q: -4.68%
R88K: 84.7%
Q167F: 61.6%
R88G: 13.9%
E129F: 88.2%

Set 5
Target: Histone acetyltransferase KAT6A, winged helix 2, GST fusion (KAT6A, Homo sapiens, UniProt Q92794, residues 85-181)
Method: protein binding microarray
Form: double-stranded DNA, one strand shown
Medium: in vitro
Tested at: not given
Setting: 8-mer, flanks averaged, mean of 2 arrays, mostly near background
Relative to: not given
Reading: higher = stronger binding
Quantity: E-score
Target sequence (chain): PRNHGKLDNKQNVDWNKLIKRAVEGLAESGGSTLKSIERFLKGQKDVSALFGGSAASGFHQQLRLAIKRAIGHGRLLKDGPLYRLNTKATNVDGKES
AGAAGTAT: 0.02
CATACCGC: -0.0146
AGTAGCTG: -0.0377
CTGCATAC: 0.0566
AGACGAAC: 0.0795
GTTCAAAA: -0.0201
GGTCAATA: -0.0887
AGGACCTC: -0.0599
TGAAACAA: 0.114
AGGACGAT: -0.192
ATGTAGGC: -0.0307
GGTAAACC: -0.0679
CAATTGGA: -0.00171
ACAGTTAC: -0.048
CCAAACTA: -0.117
AAGAACCG: 0.0325
CCTTGGTC: 0.0553
GGCTTACC: 0.0412
CAGTAGAC: -0.0953
AATCCTAA: -0.0725
ATAAGACA: -0.147
CAAGCGAG: 0.115
GAAGTGCC: -0.00788
ACTGCCGC: 0.279
AGTTAATA: 0.0326

For quick reference, copied from above (set 4):
E38M: 27.4%
P37A: 77.7%
D153L: 1.84%
L169Q: -4.68%
D97V: 91.2%
Q167F: 61.6%
R99K: 100%
N85W: 84.4%
T1I: 87.8%
Q2F: 91.4%
E128Q: 101%
E4N: 75.8%
